Measurements gathered from unrelated publications.
Each line is one published result; not all experiments were run side by side. “And” joins repeats or separate records; there may be more than shown. ± marks the error that the study gave.
ESR1: Estrogen receptor (ESR1, Homo sapiens, UniProt P03372)
ADORA1: Adenosine receptor A1 (ADORA1, Homo sapiens, UniProt P30542)
C3AR1: C3a anaphylatoxin chemotactic receptor (C3AR1, Homo sapiens, UniProt Q16581)
ESR2: Estrogen receptor beta (ESR2, Homo sapiens, UniProt Q92731)
MTNR1A: Melatonin receptor type 1A (MTNR1A, Homo sapiens, UniProt P48039)
FPR1: fMet-Leu-Phe receptor (FPR1, Homo sapiens, UniProt P21462)

| Compound | target | test | system | conditions | EC50 |
| --- | --- | --- | --- | --- | --- |
| O=C(NCc1ccsc1)N1CCN(C(Cc2cccc(O)c2)c2ccccc2)CC1 (stereo not drawn) | Mu-type opioid receptor (OPRM1, Homo sapiens, UniProt P35372) | cAMP, agonist | CHO-K1 | – | 1.4 nM |
| COc1cc(-c2cnc3nc2NCCCNS(=O)(=O)c2cccc(c2)N3)ccc1F | Vascular endothelial growth factor receptor 1 (FLT1, Homo sapiens, UniProt P17948) | target engagement in cells, BRET | – | – | 13000 nM |
| CC(C)C[C@@H]1NC(=O)[C@H](CCCNC(=N)N)NC(=O)[C@H](C(C)C)NC(=O)[C@H](Cc2c[nH]cn2)NC(=O)[C@H](Cc2c[nH]cn2)NC(=O)CNC(=O)[C@H](CCCCN)NC(=O)[C@H](CC(C)C)NC(=O)[C@H](CC(N)=O)NC(=O)[C@H]([C@@H](C)O)NC(=O)[C@H](CO)NC(=O)[C@H](CC(N)=O)NC(=O)[C@@H]2CCCN2C(=O)[C@H](CO)NC(=O)[C@@H]2CCCN2C(=O)[C@H](C(C)C)NC(=O)[C@H](CCCNC(=N)N)NC(=O)[C@H](Cc2c[nH]cn2)NC(=O)[C@@H]2CSSC[C@H](NC1=O)C(=O)N[C@@H](CCCCN)C(=O)N1CCC[C@H]1C(=O)N[C@H](C(=O)N[C@@H](CCCCN)C(=O)N[C@@H](CC(C)C)C(=O)N[C@@H](CCC(=O)O)C(=O)N1CCC[C@H]1C(=O)N[C@@H](CCC(=O)O)C(=O)N1CCC[C@H]1C(=O)N[C@@H](CCCNC(=N)N)C(=O)N[C@@H](CC(C)C)C(=O)N[C@@H](Cc1c[nH]c3ccccc13)C(=O)N[C@H](C(=O)N[C@H](C(=O)N1CCC[C@H]1C(=O)NCC(=O)N[C@@H](C)C(=O)N[C@@H](CC(C)C)C(=O)N1CCC[C@H]1C(=O)N[C@@H](CCC(N)=O)C(=O)N[C@H](C(=O)O)C(C)C)C(C)C)C(C)C)CSSC[C@H](NC(=O)[C@H](CC(C)C)NC(=O)[C@H](CCCNC(=N)N)NC(=O)[C@@H](NC(=O)[C@H](CCCNC(=N)N)NC(=O)[C@H](CCCNC(=N)N)NC(=O)CNC(=O)[C@H](CO)NC(=O)[C@H](Cc1c[nH]c3ccccc13)NC(=O)[C@H](C)NC(=O)[C@H](CCCCN)NC(=O)[C@H](C)NC(=O)[C@@H]1CCCN1C(=O)[C@H](CCCNC(=N)N)NC(=O)[C@H](CCCNC(=N)N)NC(=O)[C@@H](N)CCCCN)[C@@H](C)O)C(=O)N2 | G-protein coupled receptor 15, with GoB (Homo sapiens, UniProt P49685) | GoB activation, agonist, BRET | HEK293A transfected GPR15 | – | 28.8 nM |
| N=C(N)NCCC[C@H](NC(=O)[C@H](CC(=O)O)NC(=O)[C@@H]1CSCCC(=O)NCC(=O)N[C@@H](Cc2c[nH]cn2)C(=O)N[C@H](Cc2ccccc2)C(=O)N[C@@H](CCCNC(=N)N)C(=O)N[C@@H](Cc2c[nH]c3ccccc23)C(=O)N1)C(=O)N[C@@H](Cc1ccccc1)C(=O)NCC(N)=O | Melanocortin receptor 3 (MC3R, Homo sapiens, UniProt P41968) | cAMP, agonist | – | – | 170 nM |
| O=C1NC(=O)C(c2ccccc2)(c2ccccc2)N1 | Estrogen receptor (esr1, Oryzias latipes, UniProt P50241) | receptor activation, agonist | – | – | > 100000 nM |
| O=S(=O)(Oc1cccc(Br)c1)C1CC2OC1C(c1ccc(O)cc1)=C2c1ccc(O)cc1 (racemic) | ESR1 | reporter gene, agonist, luciferase | – | – | 300 nM |
| CCNC(=O)[C@H]1O[C@@H](n2cnc3c(NCCCCCNC(=O)CCCCCNC(=O)COc4ccc(/C=C/C5=[N+]6C(=Cc7ccc(-c8cccs8)n7[B-]6(F)F)C=C5)cc4)ncnc32)[C@H](O)[C@@H]1O | ADORA1 | CRE-SPAP reporter gene, agonist | CHO-A1 | Gs enhancement, together with: forskolin | 589 nM |
| CC(C)C[C@H](NC(=O)[C@H](C)NC(=O)[C@H](CO)NC(=O)[C@@H]1CCCN1C(=O)[C@@H]1CCCN1C(=O)[C@H](CCC(N)=O)NC(=O)[C@H](CC(C)C)NC(=O)[C@@H](N)[C@@H](C)O)C(=O)N[C@@H](CCCNC(=N)N)C(=O)N[C@@H](CCCNC(=N)N)C(=O)N[C@@H](CCCNC(=N)N)C(=O)N[C@@H](Cc1c[nH]cn1)C(=O)N[C@@H](Cc1ccc(O)cc1)C(=O)N[C@@H](Cc1c[nH]cn1)C(=O)N[C@@H](Cc1c[nH]cn1)C(=O)N[C@@H](C)C(=O)N[C@@H](CC(C)C)C(=O)N1CCC[C@H]1C(=O)N1CCC[C@H]1C(=O)N[C@@H](CO)C(=O)N[C@@H](CCCNC(=N)N)C(=O)O | C3AR1 | cAMP, agonist, luciferase | – | – | 107 nM |
| CCCC[C@H](NC(=O)[C@H](CO)NC(=O)[C@H](Cc1ccc(O)cc1)NC(=O)[C@H](CO)NC(C)=O)C(=O)N[C@@H](CCC(=O)O)C(=O)N[C@@H](Cc1c[nH]cn1)C(=O)N[C@H](Cc1ccccc1)C(=O)N[C@@H](CCCNC(=N)N)C(=O)N[C@@H](Cc1c[nH]c2ccccc12)C(=O)NCC(=O)N[C@@H](CCCCN)C(=O)N1CCC[C@H]1C(=O)N[C@H](C(=O)NCC(=O)N[C@@H](CCCCN)C(=O)N[C@@H](CCCCN)C(=O)N[C@@H](CCCNC(=N)N)C(N)=O)C(C)C | Melanocortin receptor 3 (MC3R, Homo sapiens, UniProt P41968, L128M) | cAMP production, agonist | – | mutant receptor | 3.7 ± 0.1 nM |
| CCCn1c(=O)c2[nH]c(-c3ccc(OCC(=O)NCCNC(=O)CCCCCNC(=O)COc4ccc(/C=C/C5=[N+]6C(=Cc7ccc(-c8cccs8)n7[B-]6(F)F)C=C5)cc4)cc3)nc2n(CCC)c1=O | ADORA1 | reporter gene, agonist | – | – | 117 nM |
| N#CC(=CC(=O)c1ccccc1)c1ccc(O)cc1 | ESR2 | coactivator recruitment, agonist | – | – | 2970 nM |
| CC/C(=C(\c1ccccc1)c1ccc(OCCN(C)CCCCC(=O)NCCCOc2ccc3[nH]cc(CCNC(C)=O)c3c2)cc1)c1ccccc1 | MTNR1A | phosphorylation in cells, agonist, AlphaScreen | – | – | 247 nM |
| O=C(Nc1c(-c2cccs2)nc2ccccn12)c1ccc(Cl)cc1 | Gamma-aminobutyric acid receptor subunit delta/Gamma-aminobutyric acid receptor subunit beta-2/Gamma-aminobutyric acid receptor subunit alpha-6 (Homo sapiens, UniProt O14764+P47870+Q16445) | positive allosteric modulator, FLIPR membrane potential | cells expressing α6β2δ GABA-A receptor | – | 2020 nM |
| N=C(N)NCCC[C@H](NC(=O)[C@H](Cc1ccccc1)NC(=O)[C@@H](N)CO)C(=O)N[C@@H](CC(N)=O)C(=O)NCC(N)=O | Neuropeptide S receptor (Mus musculus, UniProt Q8BZP8) | calcium signal, agonist | – | – | 1010 nM |
| O=C1CCCN1C1CCN(CC2CC(c3ccccc3)=NO2)c2ccccc21 (stereo not drawn) | Broad substrate specificity ATP-binding cassette transporter ABCG2 (ABCG2, Homo sapiens, UniProt Q9UNQ0) | ATPase activity, activator | – | 20 min, pH 6.8, cell membranes | 1640 nM |
| COc1ccc(C(C)C)c(CNc2cccnc2)c1 | MTNR1A | cAMP, agonist, luciferase | – | – | > 31600 nM |
| C=CCc1cccc(-c2cc(/C=C/C(=O)O)ccc2O)c1 | Retinoic acid receptor RXR-alpha, homodimer (RXRA, Homo sapiens, UniProt P19793) | – | – | – | 31.6 nM |
| CSCC[C@H](NC=O)C(=O)N[C@@H](CC(C)C)C(=O)O | FPR1 | binding, competitor | U-937 | 4 °C, together with: 5 nM WK(FL)YMVm | ~100 nM and 110 nM |
| COc1ccc(C(=O)[C@H](C)OC(=O)c2cccc(O)c2)cc1 | ESR2 | coactivator recruitment, agonist | – | – | 3490 nM |
| CCN(C(=O)C1CCN(S(=O)(=O)c2ccc3[nH]ncc3c2)CC1)C1CCc2ccccc21 (racemic) | Muscarinic acetylcholine receptor M5 (CHRM5, Homo sapiens, UniProt P08912) | calcium mobilization, positive allosteric modulator | CHO expressing human M5 | together with: acetylcholine EC20 | 1060 nM |
| CC(C)C[C@H](NC(=O)CNC(=O)[C@H](CC(C)C)NC(=O)[C@H](CCCCN)NC(=O)[C@H](CO)NC(=O)[C@H](C)NC(=O)[C@H](CCCN=C(N)N)NC(=O)[C@H](Cc1ccc(O)cc1)NC(=O)[C@H](CCCCN)NC(=O)[C@H](CCCCN)NC(=O)CNC(=O)[C@H](Cc1c[nH]c2ccccc12)NC(=O)[C@@H](N)Cc1c[nH]c2ccccc12)C(=O)N[C@@H](C)C(=O)N[C@@H](CCCN=C(N)N)C(=O)O | C3AR1 | receptor internalization, agonist, ELISA surface expression | HEK293T, β-arrestin2, GRK2 co-expressed | 60 min, 37 °C | 46 nM |
| CCCn1c(=O)c2[nH]c(-c3ccc(OCC(=O)NCCNC(=O)CCCCCCCNS(=O)(=O)c4cccc5c(N(C)C)cccc45)cc3)nc2n(CCC)c1=O | ADORA1 | reporter gene, agonist | – | – | 30.2 nM |
| CC/C(=C(\c1ccccc1)c1ccc(OCCN(C)CCCCC(=O)NCCc2c[nH]c3ccc(OC)cc23)cc1)c1ccccc1 | MTNR1A | phosphorylation in cells, agonist, AlphaScreen | – | – | 253 nM |
| CC(C)C[C@H](NC(=O)[C@@H](N)[C@@H](C)O)C(=O)N[C@@H](CCC(N)=O)C(=O)N1CCC[C@H]1C(=O)N1CCC[C@H]1C(=O)N[C@@H](C)C(=O)N[C@@H](CO)C(=O)N[C@@H](CO)C(=O)N[C@@H](CCCNC(=N)N)C(=O)N[C@@H](CCCNC(=N)N)C(=O)N[C@@H](CCCNC(=N)N)C(=O)N[C@@H](Cc1c[nH]cn1)C(=O)N[C@@H](Cc1ccccc1)C(=O)N[C@@H](Cc1c[nH]cn1)C(=O)N[C@@H](Cc1c[nH]cn1)C(=O)N[C@@H](C)C(=O)N[C@@H](CC(C)C)C(=O)N1CCC[C@H]1C(=O)N1CCC[C@H]1C(=O)N[C@@H](C)C(=O)N[C@@H](CCCNC(=N)N)C(=O)O | C3AR1 | β-arrestin1 recruitment, agonist, BRET | – | together with: GRK2 co-expression | 191 nM |
| O=S(=O)(Oc1ccccc1F)C1CC2OC1C(c1ccc(O)cc1)=C2c1ccc(O)cc1 (racemic) | ESR1 | reporter gene, agonist, luciferase | – | – | 26 nM |
| O=C(CCc1ccc(O)cc1)c1c(O)cc(O)cc1O | ESR2 | coactivator recruitment, agonist | – | – | 25500 nM |
| COc1cccc(Cc2cc(CCC(=O)NCCNc3cccc4c(S(=O)(=O)O)cccc34)nn(CC(=O)Nc3ccc(Br)cc3)c2=O)c1 | FPR1 | calcium mobilization, agonist | HL-60 transfected with target | – | 10 ± 5 nM |

Repeated from above:
| Compound | target | test | system | conditions | EC50 |
| --- | --- | --- | --- | --- | --- |
| N#CC(=CC(=O)c1ccccc1)c1ccc(O)cc1 | ESR2 | coactivator recruitment, agonist | – | – | 2970 nM |
| O=S(=O)(Oc1cccc(Br)c1)C1CC2OC1C(c1ccc(O)cc1)=C2c1ccc(O)cc1 (racemic) | ESR1 | reporter gene, agonist, luciferase | – | – | 300 nM |
| N=C(N)NCCC[C@H](NC(=O)[C@H](Cc1ccccc1)NC(=O)[C@@H](N)CO)C(=O)N[C@@H](CC(N)=O)C(=O)NCC(N)=O | Neuropeptide S receptor (Mus musculus, UniProt Q8BZP8) | calcium signal, agonist | – | – | 1010 nM |
